Experimental data collected from several papers.
Values joined by “and” are separate records of one study, mostly repeats; a detail may differ. ± gives the spread as reported.
B1: human adenosylhomocysteinase; sequence looked up; chain SDKLPYKVADIGLAAWGRKALDIAENEMPGLMRMRERYSASKPLKGARIAGCLHMTVETAVLIETLVTLGAEVQWSSCNIFSTQDHAAAAIAKAGIPVYAWKGETDEEYLWCIEQTLYFKDGPLNMILDDGGDLTNLIHTKYPQLLPGIRGISEETTTGVHNLYKMMANGILKVPAINVNDSVTKSKFDNLYGCRESLIDGIKRATDVMIAGKVAVVAGYGDVGKGCAQALRGFGARVIITEIDPINALQAAMEGYEVTTMDEACQEGNIFVTTTGCIDIILGRHFEQMKDDAIVCNIGHFDVEIDVKWLNENAVEKVNIKPQVDRYRLKNGRRIILLAEGRLVNLGCAMGHPSFVMSNSFTNQVMAQIELWTHPDKYPVGVHFLPKKLDEAVAEAHLGKLNVKLTKLTEKQAQYLGMSCDGPFKPDHYRY
B2: interferon gamma; sequence looked up; chain QDPYVKEAENLKKYFNAGHSDVADNGTLFLGILKNWKEESDRKIMQSQIVSFYFKLFKNFKDDQSIQKSVETIKEDMNVKFFNSNKKKRDDFEKLTNYSVTDLNVQRKAIHELIQVMAELSPAAKTGKRKRSQMLFRG
B3: recombinant human GDNF; sequence looked up; chain SPDKQMAVLPRRERNRQAAAANPENSRGKGRRGQRGKNRGCVLTAIHLNVTDLGLGYETKEELIFRYCSGSCDAAETTYDKILKNLSRNRRLVSDKVGQACCRPIAFDDDLSFLDDNLVYHILRKHSAKRCGCI

Substance | tested on | test | test system | conditions | scale | endpoint | value
B1 (human adenosylhomocysteinase) | PP6C (human) | co-immunoprecipitation, IP-MS | CYB5R4 knockout cells | concentration not given | relative to: CYB5R4 knockout over parental | log2 fold change | 0.14
B2 (interferon gamma) | – | proteinuria inducer | FVB mice | dose not given, 72 h | – | urine albumin/creatinine ratio | 12.4 and 10.9 and 32.3 and 24.3 and 137 and 13.8 and 55.7 and 20.3
maraviroc | – | Western blot, refers to: GSK-3β phospho-Ser9 | mice, NSG hu-PBL, HIV-infected, frontal cortex | i.p., 120 mg/kg twice daily, 3 weeks post infection, normalised to total GSK-3β | relative to: HIV-infected untreated mice, increase | protein level | 2.3 fold
difelikefalin | – | – | Japanese haemodialysis patients with pruritus | intravenous, 1.0 µg/kg, 8 weeks | – | PGIC very much worse | 0%
semaglutide | – | – | Wistar rat, male, diet-induced obese | subcutaneous, dose not given, 14 days | relative to: vehicle | body weight reduction | -8.5%
heparin sodium | – | – | human | intravenous infusion, 8 IU/kg/h, day 1 to 6 | relative to: baseline | AUEC of PT ratio | 137
cotadutide | – | metabolomics, refers to: hepatic cysteine | ob/ob mice on AMLN diet, NASH model, liver | dose not given | – | metabolite level | 0.63 ± 0.15 scaled intensity
liraglutide | – | – | Wistar rat, female, diet-induced obese | subcutaneous, increasing doses once daily, 28 days | – | body weight reduction | -6.8%
Pam2CSK4 | – | – | APP/PS1 mouse, cortex | local injection, dose not given, unit not given | relative to: injected over adjacent side | OC-positive amyloid level | 0.872 and 1.16
human FABP5 | PP6C (human) | co-immunoprecipitation, IP-MS | CYB5R4 knockout cells | concentration not given | relative to: CYB5R4 knockout over parental | log2 fold change | 1.09
B3 (recombinant human GDNF) | – | cell counting on sections, refers to: tyrosine hydroxylase | rat, 6-OHDA lesion model, substantia nigra pars compacta, lesioned side | 3 µg/24 h | – | TH-immunoreactive cell count | 383 ± 61.2
colistin | Enterobacter cloacae | – | clinical isolate RKI 466/13 | – | – | MIC | ≤ 0.5 µg/mL

For quick reference, copied from above:
Substance | tested on | test | test system | conditions | scale | endpoint | value
liraglutide | – | – | Wistar rat, female, diet-induced obese | subcutaneous, increasing doses once daily, 28 days | – | body weight reduction | -6.8%
